Assay results gathered from unrelated publications.
Protocols differ between the studies behind these lines. “And” joins repeats or separate records; there may be more than shown.
Cell line: MDA-MB-231

C[C@H]1[C@H](C)CC[C@]2(C)CC[C@]3(C)C(=CC(=O)[C@@H]4[C@@]5(C)CC[C@@H](O)[C@](C)(C(=O)O)[C@@H]5CC[C@]43C)[C@H]12
IC50 (cell growth or viability, MTT; 24 h): 101 µM

COc1cc(S(=O)(=O)Oc2ccc3[nH]c(C)cc3c2)cc(OC)c1OC
IC50 (cell growth or viability, fluorescence; 5 days): 0.0104 µM

COc1ccc(CNC[C@@](O)(COCc2ccc(F)cc2)[C@@H]2CC[C@@H](C)C[C@H]2OCc2ccc(F)cc2)cc1
IC50 (cell growth or viability, MTT; 72 h): 1.76 µM

O=C(c1ccccc1)N1CCN(CC(OCc2ccc3ccccc3c2)c2ccc(Cl)cc2Cl)CC1 (stereo not drawn)
IC50 (cell growth or viability, MTT; 24 h): > 50 µM

CCCc1cc2cc(-n3nc(CC(C)C)c4c3CC(C)(C)CC4=O)cc(N3CCC(O)CC3)c2c(=O)[nH]1
IC50 (cell growth or viability, MTS): > 50 µM

NC(NN=Cc1ccc([N+](=O)[O-])o1)=[S+][Au-][Cl]
IC50 (cell growth or viability, resazurin): 35.7 µM

CCCCCCCCCC(=O)Oc1c(C)c(OC)c2c(c1C)OC(=O)C(CCCCCCCC)C2(O)C=Cc1ccccc1 (stereo not drawn)
IC50 (cell growth or viability, SRB; 72 h): > 50 µM

O=C1CS/C(=N\N=C\c2cccc3cc4ccccc4nc23)N1c1ccccc1
IC50 (cell growth or viability, MTT; 48 h): > 50 µM

CC(=O)N[C@@H](CCCNC(=N)N)C(=O)N[C@@H](Cc1c[nH]c2ccccc12)C(=O)N[C@@H](CCCNC(=N)N)C(=O)N[C@@H](Cc1c[nH]c2ccccc12)C(=O)N[C@@H](CCCNC(=N)N)C(=O)N[C@@H](Cc1c[nH]c2ccccc12)C(N)=O
IC50 (cell viability; 48 h, dark): > 100 µM

COc1ccc(CNC[C@@](O)(COCc2ccccc2)[C@@H]2CC[C@@H](C)C[C@H]2OCc2ccccc2)cc1
IC50 (cell growth or viability, MTT; 72 h): 3.15 µM

CCCc1cc2cc(-n3nc(C(F)F)c4c3CC3(CCC3)CC4=O)cc(N3CCC(O)CC3)c2c(=O)[nH]1
IC50 (cell growth or viability, MTS): 16.8 µM

CC[C@H](C)/C=C/C=C/C=C/C(O)=C/C(=O)C(F)(Cl)Cl
IC50 (cell growth, CellTiter-Glo): 11.8 µM and 18.5 µM and 27.4 µM

CCCC(=O)Oc1c(C)c(OC)c2c(c1C)OC(=O)[C@@H](CC)[C@]2(O)/C=C/c1ccccc1 (racemic)
IC50 (cell growth or viability, SRB; 72 h): > 50 µM

O=[N+]([O-])c1ccc(C=NNC(=S)Nc2ccccc2)o1
IC50 (cell growth or viability, resazurin): > 100 µM

CC[C@H](C)/C=C/C=C/C(O)=C/C(=O)C(F)(F)F
IC50 (cell growth, CellTiter-Glo): 66.7 µM and 59.7 µM

Clc1ccc(COC(Cn2cnc3ccccc32)c2ccc(Cl)cc2Cl)cc1 (stereo not drawn)
IC50 (cell growth or viability, MTT; 24 h): > 50 µM

CCOC(=O)/C=C1\S/C(=N\N=C\c2cccc3cc4ccccc4nc23)N(CC(C)C)C1=O
IC50 (cell growth or viability, MTT; 48 h): > 50 µM

Clc1ccc(COC(Cn2cncn2)c2ccc(Cl)cc2Cl)cc1 (stereo not drawn)
IC50 (cell growth or viability, MTT; 24 h): 42.5 µM

CC(=O)[O][Pd][c]1ccccc1-n1nc(C)cc1C.CC(=O)[O][Pd][c]1ccccc1-n1nc(C)cc1C
IC50 (cell growth or viability, MTT): 39.2 µM

O=C(c1ccc([N+](=O)[O-])cc1)N1CCN(CC(OCc2ccc3ccccc3c2)c2ccc(Cl)cc2Cl)CC1 (stereo not drawn)
IC50 (cell growth or viability, MTT; 24 h): 39.5 µM

COc1ccc(COC[C@](O)(CNCc2ccccc2)[C@@H]2CC[C@@H](C)C[C@H]2OCc2ccc(OC)cc2)cc1
IC50 (cell growth or viability, MTT; 72 h): 2.13 µM

Repeated from above:
CCCc1cc2cc(-n3nc(C(F)F)c4c3CC3(CCC3)CC4=O)cc(N3CCC(O)CC3)c2c(=O)[nH]1
IC50 (cell growth or viability, MTS): 16.8 µM

C[C@H]1[C@H](C)CC[C@]2(C)CC[C@]3(C)C(=CC(=O)[C@@H]4[C@@]5(C)CC[C@@H](O)[C@](C)(C(=O)O)[C@@H]5CC[C@]43C)[C@H]12
IC50 (cell growth or viability, MTT; 24 h): 101 µM

COc1ccc(CNC[C@@](O)(COCc2ccccc2)[C@@H]2CC[C@@H](C)C[C@H]2OCc2ccccc2)cc1
IC50 (cell growth or viability, MTT; 72 h): 3.15 µM
